Experimental data of several laboratories.
Numbered parts are unrelated; each lists some results of a single study. Positions count from the first letter of the parent shown.

Sample 1 — method: DHFR PCA, deep sequencing; sample: yeast; with: (+)-ABA 2500 µM; baseline: wild-type fitted maximum; reading: higher = stronger binding
Target: ABI1, truncated, D143A, DHFR fusion (Arabidopsis thaliana)
Setting: methotrexate growth selection, single substitutions
Starting sequence: PYL1, truncated, DHFR fusion (Arabidopsis thaliana); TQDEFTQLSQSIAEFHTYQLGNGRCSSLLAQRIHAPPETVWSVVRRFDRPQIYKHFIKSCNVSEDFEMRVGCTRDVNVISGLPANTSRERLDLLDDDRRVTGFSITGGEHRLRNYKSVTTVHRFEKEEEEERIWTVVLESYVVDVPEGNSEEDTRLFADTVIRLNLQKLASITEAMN; partner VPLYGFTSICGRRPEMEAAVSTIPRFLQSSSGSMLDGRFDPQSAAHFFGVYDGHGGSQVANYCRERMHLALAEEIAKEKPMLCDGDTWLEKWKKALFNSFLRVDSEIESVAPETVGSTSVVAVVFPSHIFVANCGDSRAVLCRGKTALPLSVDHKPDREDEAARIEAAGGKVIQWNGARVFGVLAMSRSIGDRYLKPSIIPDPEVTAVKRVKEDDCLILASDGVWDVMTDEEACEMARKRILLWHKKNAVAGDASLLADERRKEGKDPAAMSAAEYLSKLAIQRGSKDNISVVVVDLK
| Substitution | relative binding score [%] |
| --- | --- |
| Q2F | 95.9 |
| D97V | 101 |
| D153L | 27.2 |
| R99K | 108 |
| R88G | 81 |
| T1I | 96.1 |
| Q167F | 91 |
| R88K | 98.7 |
| N85W | 93.3 |
| E4N | 94.6 |
| T119C | 106 |

Sample 2 — method: EMSA with sequencing; molecule type: double-stranded DNA, one strand shown; sample: in vitro; tested at: 10 and 20 nM; baseline: negative control set to 0; reading: higher = stronger binding
Target: Hepatocyte nuclear factor 3-alpha (Foxa1, Mus musculus, UniProt P35582, residues 1-468, full length assumed)
UniProt P35582, sequence (whole entry, looked up): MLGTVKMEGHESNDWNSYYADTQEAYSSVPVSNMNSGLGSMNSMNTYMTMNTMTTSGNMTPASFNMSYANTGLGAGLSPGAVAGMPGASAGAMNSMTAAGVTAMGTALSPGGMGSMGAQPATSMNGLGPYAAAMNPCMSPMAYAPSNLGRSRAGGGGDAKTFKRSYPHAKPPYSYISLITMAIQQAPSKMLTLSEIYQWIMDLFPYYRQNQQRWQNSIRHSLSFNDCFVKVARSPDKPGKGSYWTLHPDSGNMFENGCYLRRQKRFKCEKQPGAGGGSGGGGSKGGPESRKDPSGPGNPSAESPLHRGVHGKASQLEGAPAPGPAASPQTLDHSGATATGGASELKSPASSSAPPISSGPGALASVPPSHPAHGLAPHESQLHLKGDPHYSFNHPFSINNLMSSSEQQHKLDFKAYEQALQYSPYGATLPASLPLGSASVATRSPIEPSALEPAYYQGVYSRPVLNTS
Setting: whole designed probe, mean of two concentrations, ends assumed
Constant ends, left off below: GTGAGCGGTGCCCATTGATGGGGAAC … TTTCACTGGGATCGTGGGGAC
| Oligonucleotide | normalised bound fraction [ratio] |
| --- | --- |
| TAGACAAGTTTACGTAATCCTTCTGTTCCTCAGTTTCCTCATCTGTTACATGGGTGATATTAATAGGGTGTACCTTTTGATTGGGCTGGACCCAGATTGCATTCTGCCCTGAAGGAGAGCGGGGCTGTGGGTCAAAGCTGCCCTAATTATAGGTGCAGCATCCGGAGCAAGGTGTTGCTTGGCTCTGCACTGC | -0.0639 |
| CATCAAGGGTGTGTGATGAATGTTATGTCTGTGATTATGCAACAGGAGATGGGACTTTCCATCTTTCTAGCAGGCTTTCTCGACTCTCTCCCTTATTGACTTTGTTGATGTAAGCCTCCATGTGGTAAAGCCCTTGTGGCGGGAACTCAGGGCAGCCTCCGGCAACAGCCAGCAGGGAGCTGGGACTCAACAA | 0.282 |
| CTGTTTGCTCAGAACCCTTCTCCCCACTTCCCCTCACCCTTTGGACCCTGGAACACACCAGGCCCATTCCTGAGGGCTTGAGAGCTGGGATCTCTGTTTACTCAGATAGGTTGTGCTGTCCTGGCCCTAAGGGCCCTAAGGGCTCTGCCTTCTGGGAGGTCCCTGAGCTGGTGCCAGGATGGGCAGTGGGCTG | 0.399 |
| CTGTTTATACTCCGAAGTTCTTTTCCCTTGATCTGTATAAGACACAATAGATGATAACAGCTGATTGAGAATAGTTAGTCTAGTGTATAAATATGTAAACATGGGTAAGTATGTATTTAGACAATTTAAAAGTGTGTCTCATTTACCCAATTATAAACAGCTGTCTGAGAGCAATTACGATTTATCATGTAAA | 0.305 |
| CAGCCGGCCTAGACTTCAGGTCTAGTTAGCACACATTCTTATGCCCACCTTTTCCAACTTCACAGGCGCCTCTCATCTCTCCGTTAAGCTCTTGTTTACTCAGGACCACATATTTTAGTAATTGGTGGCTCACTCATTGCTTCACATCTATTCGGTTCCCGTTGCCACTGTATTTTGACAACATGTATTGCTT | 0.444 |
| TTAATAAAGCAGCAAGACCAGAGGTTGGGTTCTTGTATTGTTGCTTGAAGCAGTGTTAAAGATACACCGACATGACTAAAATGCATTGCTGAGTAAACAAGCACGGATTTTAAAGTTTAATATGATTAATGCAACTTGATGCCAAACTCTGAATGTCTCCTAAGGCTTCCAAGTTACTGAAAAGCAGCCAATA | 0.384 |
| ATCTTCCCCCTCTTCCTTGCCCCACCAGCTCACCTTCCCGGGTTATTTGCAGATAGGAAAATAAATAAAGCCGGCATTCGTTAACCCCCGGGTTTCTCAAACTGCTGTTTGCTCTGGATGAATCATGGTCCTTTGGCGACGCCAGGCTCCGGGAGAGCAAAGCACCGTGTCAGGGCCATGATCCGGGGTGGCC | 0.359 |
| TTCTGGTAACTCCAACTTTTGGCTCATTTGTGGGTCAGACAGATCTGAGAAGCTTGGTTTTTTTTTACTCAGTGTCAGGTACTTTATATTTAGTGTTTACATTCCTAGCCAGAGAAGCATTTATGTAAACACTCTCTATATTTAATGACTCAGTTTAAGAAAATGCTTACAATAATTGAGGTCTCCTTGTTTC | 0.422 |

Sample 3 — method: protein binding microarray; molecule type: double-stranded DNA, one strand shown; sample: in vitro; tested at: not given; baseline: not given; reading: higher = stronger binding
Target: Histone acetyltransferase KAT6A, both winged helices, GST fusion (KAT6A, Homo sapiens, UniProt Q92794, residues 1-181)
Setting: 8-mer, flanks averaged, mean of 2 arrays, mostly near background
Construct (chain): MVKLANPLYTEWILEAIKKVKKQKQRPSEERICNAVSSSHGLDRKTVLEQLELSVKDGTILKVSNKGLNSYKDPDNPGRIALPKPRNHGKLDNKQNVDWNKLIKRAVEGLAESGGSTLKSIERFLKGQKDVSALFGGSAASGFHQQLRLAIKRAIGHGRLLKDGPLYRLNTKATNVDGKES
| Oligonucleotide | E-score |
| --- | --- |
| AAAAGTTC | -0.0329 |
| CGCGTGTA | 0.221 |
| GCTCGGAC | 0.118 |
| ACTGCGTG | 0.0472 |
| AAAAACGG | 0.186 |
| AGCGTGAC | 0.145 |
| AGATAGGG | -0.275 |
| GACAAGGC | 0.0336 |
| AGGTTGAC | -0.14 |
| GGTCCCTA | -0.0353 |
| GCGTAGCA | 0.136 |
| ACCCGACA | 0.0934 |
| AACGTAGA | -0.0118 |
| CCTTTTTC | -0.276 |
| ATTAACAC | -0.0516 |
| AGAACAGA | -0.174 |
| AATGCAAG | -0.129 |
| GACAAGGA | -0.125 |

Sample 4 — target: CCNE2, cyclin fold, Cln2 fusion (human); method: yeast growth competition, sequencing; sample: yeast; setting: weak parent motif; baseline: not given; reading: higher = stronger binding
Starting sequence: RB1 docking peptide (human); PKPLKKLRFDIEG
| Substitution | normalised enrichment score |
| --- | --- |
| L4Q | 0.693 |
| E12Q | 0.471 |
| K5P | 0.334 |
| P1F | 0.631 |
| K6L | 0.173 |
| K2N | 0.251 |
| R8G | 0.0415 |
| E12Y | 0.509 |
| K6W | 0.154 |
| K5Q | 0.416 |
| K2A | 0.715 |
| R8D | 0.164 |
| R8V | 0.356 |
| L7S | 0.73 |
| E12M | 0.625 |
| P3K | 0.913 |
| E12K | -0.596 |
| K2C | 0.757 |
| G13Q | 0.322 |
| F9V | 0.825 |
| K6A | 0.631 |

Sample 5 — target: BATF2, bZIP domain (human); method: DHFR protein complementation; sample: yeast; baseline: wild-type JUN-FOS pair; reading: higher = stronger binding
Setting: single substitutions, most at no-binding floor
Starting sequence: JUN, bZIP domain (human); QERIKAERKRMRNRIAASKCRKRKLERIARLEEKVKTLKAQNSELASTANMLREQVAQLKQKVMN; partner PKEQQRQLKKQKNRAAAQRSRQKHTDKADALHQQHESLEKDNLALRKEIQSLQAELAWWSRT
| Substitution | binding fitness [natural log] |
| --- | --- |
| K34F | -0.994 |
| I28R | -0.403 |
| Q55D | -1.1 |
| L31K | -1.19 |
| T37S | -0.291 |
| L38E | -1.22 |
| K34A | -0.155 |
| Q55T | -0.586 |
| L45F | -1.03 |
| L52Y | -0.994 |
| K39M | -0.455 |
| A29I | -0.343 |
| Q55R | -0.245 |
| L31C | -0.755 |
| E54H | -0.558 |
| I28M | -0.236 |
| A57H | -0.39 |

A few entries again (sample 5):
| Substitution | binding fitness [natural log] |
| --- | --- |
| L31K | -1.19 |
| T37S | -0.291 |
| L38E | -1.22 |
| K34A | -0.155 |
| Q55T | -0.586 |
| L45F | -1.03 |
| L52Y | -0.994 |
| K39M | -0.455 |
| A29I | -0.343 |
| Q55R | -0.245 |
